{"sequences": {"note": "Chains of the proteins cited; added tags and fusions are not shown. Residues count along the entry.", "UniProt P03372, whole entry": "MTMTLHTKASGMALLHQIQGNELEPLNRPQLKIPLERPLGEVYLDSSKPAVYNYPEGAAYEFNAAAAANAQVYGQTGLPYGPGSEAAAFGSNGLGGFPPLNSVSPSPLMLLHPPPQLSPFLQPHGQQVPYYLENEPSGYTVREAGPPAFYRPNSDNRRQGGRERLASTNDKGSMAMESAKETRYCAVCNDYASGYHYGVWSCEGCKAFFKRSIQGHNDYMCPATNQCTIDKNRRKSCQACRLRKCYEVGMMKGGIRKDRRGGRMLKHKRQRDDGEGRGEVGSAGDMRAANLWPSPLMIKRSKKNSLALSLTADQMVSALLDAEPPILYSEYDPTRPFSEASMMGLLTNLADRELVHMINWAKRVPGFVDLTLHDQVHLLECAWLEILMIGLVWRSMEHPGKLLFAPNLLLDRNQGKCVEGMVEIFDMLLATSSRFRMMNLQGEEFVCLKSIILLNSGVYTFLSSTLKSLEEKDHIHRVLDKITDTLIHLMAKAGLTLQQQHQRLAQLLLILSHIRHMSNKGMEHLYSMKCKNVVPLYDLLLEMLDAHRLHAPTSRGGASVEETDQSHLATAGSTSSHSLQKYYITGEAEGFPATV", "UniProt Q13547, whole entry": "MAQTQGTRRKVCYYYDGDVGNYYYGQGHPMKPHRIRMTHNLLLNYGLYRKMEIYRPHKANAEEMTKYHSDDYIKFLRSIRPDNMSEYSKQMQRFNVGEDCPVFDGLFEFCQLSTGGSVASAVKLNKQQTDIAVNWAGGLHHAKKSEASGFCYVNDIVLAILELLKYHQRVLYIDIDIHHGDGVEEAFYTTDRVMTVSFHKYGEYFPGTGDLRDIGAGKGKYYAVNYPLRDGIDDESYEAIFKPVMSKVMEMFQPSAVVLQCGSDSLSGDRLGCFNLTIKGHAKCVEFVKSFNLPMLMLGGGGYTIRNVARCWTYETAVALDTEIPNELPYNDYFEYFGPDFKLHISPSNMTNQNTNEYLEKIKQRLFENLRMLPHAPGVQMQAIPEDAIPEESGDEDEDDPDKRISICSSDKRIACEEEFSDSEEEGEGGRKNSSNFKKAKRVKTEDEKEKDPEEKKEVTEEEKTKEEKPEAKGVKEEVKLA", "UniProt P11362, 22-822 limits assumed": "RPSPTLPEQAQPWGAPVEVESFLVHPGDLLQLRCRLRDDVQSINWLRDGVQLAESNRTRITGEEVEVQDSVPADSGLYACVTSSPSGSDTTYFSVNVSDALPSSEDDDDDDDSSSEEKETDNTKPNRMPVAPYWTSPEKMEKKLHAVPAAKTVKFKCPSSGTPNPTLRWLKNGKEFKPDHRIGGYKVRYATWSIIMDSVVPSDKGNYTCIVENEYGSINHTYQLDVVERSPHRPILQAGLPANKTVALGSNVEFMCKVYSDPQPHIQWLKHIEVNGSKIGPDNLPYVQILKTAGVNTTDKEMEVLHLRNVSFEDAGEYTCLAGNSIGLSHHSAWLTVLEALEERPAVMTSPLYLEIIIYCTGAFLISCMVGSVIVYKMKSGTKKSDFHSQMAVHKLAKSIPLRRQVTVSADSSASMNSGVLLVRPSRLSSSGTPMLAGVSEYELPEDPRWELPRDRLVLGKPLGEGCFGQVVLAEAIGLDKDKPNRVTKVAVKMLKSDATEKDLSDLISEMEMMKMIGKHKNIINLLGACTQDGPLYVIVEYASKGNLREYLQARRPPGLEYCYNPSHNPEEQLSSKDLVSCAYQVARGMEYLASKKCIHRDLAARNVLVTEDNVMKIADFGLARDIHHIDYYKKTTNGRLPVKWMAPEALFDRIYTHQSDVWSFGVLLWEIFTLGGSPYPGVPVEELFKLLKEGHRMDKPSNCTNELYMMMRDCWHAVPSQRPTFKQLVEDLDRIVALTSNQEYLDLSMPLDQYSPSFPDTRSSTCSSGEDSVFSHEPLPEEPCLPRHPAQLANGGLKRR", "UniProt P68400, whole entry": "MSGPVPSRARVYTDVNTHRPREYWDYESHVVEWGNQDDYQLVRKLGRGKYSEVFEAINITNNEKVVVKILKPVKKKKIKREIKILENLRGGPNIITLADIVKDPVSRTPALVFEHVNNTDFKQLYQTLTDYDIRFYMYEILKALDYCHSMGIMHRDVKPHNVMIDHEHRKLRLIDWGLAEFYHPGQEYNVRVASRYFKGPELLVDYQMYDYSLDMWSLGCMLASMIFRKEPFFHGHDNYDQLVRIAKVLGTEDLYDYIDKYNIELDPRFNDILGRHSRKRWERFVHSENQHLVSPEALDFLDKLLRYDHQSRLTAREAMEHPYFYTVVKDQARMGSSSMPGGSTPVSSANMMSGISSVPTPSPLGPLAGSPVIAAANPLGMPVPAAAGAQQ", "UniProt P08238, whole entry": "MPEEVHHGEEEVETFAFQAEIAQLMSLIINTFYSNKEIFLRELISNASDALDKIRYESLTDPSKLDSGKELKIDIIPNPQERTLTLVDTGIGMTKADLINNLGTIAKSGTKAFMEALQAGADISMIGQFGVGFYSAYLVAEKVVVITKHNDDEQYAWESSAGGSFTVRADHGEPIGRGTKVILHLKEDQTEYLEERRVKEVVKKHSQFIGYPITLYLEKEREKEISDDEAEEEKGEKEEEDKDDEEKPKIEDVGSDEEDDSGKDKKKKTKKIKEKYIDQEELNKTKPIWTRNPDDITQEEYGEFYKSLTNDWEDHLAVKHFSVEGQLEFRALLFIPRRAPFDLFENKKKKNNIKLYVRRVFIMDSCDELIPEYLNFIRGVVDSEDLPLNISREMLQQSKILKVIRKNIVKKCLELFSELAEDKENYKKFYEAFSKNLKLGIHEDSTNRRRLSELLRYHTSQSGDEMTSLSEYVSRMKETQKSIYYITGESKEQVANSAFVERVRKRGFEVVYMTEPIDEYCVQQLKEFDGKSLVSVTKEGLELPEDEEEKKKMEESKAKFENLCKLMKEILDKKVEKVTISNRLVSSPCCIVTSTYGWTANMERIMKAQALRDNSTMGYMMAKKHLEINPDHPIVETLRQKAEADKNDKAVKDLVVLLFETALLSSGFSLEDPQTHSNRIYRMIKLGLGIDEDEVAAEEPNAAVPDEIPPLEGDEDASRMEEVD", "UniProt P31421, 19-872 limits assumed": "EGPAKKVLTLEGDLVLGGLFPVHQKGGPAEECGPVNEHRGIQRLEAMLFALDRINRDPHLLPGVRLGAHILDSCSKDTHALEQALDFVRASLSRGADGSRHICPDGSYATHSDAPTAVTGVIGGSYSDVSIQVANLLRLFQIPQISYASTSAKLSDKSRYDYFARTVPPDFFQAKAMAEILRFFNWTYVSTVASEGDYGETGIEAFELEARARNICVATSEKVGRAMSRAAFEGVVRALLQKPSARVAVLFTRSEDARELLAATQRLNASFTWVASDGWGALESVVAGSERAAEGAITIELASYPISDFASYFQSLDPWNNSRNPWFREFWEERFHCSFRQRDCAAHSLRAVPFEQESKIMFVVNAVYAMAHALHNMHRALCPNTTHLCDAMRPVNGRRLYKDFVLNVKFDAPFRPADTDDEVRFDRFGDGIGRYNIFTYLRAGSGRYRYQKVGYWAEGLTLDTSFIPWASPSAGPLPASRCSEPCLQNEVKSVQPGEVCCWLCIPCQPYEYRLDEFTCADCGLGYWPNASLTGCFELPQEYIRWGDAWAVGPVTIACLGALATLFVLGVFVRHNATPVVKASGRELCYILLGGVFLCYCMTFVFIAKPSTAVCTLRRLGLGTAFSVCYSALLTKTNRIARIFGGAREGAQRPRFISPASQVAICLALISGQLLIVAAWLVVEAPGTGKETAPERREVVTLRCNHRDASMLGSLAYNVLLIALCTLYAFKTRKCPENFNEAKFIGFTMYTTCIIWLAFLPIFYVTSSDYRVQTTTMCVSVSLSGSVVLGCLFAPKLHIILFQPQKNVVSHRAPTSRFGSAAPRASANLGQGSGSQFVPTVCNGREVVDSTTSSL", "UniProt P09917, whole entry": "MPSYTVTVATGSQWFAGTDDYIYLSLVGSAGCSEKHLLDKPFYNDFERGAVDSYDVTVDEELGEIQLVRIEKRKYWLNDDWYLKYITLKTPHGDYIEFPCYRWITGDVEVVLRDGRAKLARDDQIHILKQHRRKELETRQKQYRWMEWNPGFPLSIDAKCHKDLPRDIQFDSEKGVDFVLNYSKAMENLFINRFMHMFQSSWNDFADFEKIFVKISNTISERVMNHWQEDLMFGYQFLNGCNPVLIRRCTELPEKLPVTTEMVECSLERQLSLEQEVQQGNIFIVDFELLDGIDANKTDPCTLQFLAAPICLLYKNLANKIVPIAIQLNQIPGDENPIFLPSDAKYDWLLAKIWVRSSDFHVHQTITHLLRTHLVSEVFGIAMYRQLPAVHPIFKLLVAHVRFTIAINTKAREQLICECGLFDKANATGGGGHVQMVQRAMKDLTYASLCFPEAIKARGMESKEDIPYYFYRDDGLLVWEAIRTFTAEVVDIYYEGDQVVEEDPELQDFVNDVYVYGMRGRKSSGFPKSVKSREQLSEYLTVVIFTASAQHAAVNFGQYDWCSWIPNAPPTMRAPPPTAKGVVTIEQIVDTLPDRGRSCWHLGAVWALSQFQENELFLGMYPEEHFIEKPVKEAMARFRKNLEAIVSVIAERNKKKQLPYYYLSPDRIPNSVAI", "UniProt O95835, whole entry": "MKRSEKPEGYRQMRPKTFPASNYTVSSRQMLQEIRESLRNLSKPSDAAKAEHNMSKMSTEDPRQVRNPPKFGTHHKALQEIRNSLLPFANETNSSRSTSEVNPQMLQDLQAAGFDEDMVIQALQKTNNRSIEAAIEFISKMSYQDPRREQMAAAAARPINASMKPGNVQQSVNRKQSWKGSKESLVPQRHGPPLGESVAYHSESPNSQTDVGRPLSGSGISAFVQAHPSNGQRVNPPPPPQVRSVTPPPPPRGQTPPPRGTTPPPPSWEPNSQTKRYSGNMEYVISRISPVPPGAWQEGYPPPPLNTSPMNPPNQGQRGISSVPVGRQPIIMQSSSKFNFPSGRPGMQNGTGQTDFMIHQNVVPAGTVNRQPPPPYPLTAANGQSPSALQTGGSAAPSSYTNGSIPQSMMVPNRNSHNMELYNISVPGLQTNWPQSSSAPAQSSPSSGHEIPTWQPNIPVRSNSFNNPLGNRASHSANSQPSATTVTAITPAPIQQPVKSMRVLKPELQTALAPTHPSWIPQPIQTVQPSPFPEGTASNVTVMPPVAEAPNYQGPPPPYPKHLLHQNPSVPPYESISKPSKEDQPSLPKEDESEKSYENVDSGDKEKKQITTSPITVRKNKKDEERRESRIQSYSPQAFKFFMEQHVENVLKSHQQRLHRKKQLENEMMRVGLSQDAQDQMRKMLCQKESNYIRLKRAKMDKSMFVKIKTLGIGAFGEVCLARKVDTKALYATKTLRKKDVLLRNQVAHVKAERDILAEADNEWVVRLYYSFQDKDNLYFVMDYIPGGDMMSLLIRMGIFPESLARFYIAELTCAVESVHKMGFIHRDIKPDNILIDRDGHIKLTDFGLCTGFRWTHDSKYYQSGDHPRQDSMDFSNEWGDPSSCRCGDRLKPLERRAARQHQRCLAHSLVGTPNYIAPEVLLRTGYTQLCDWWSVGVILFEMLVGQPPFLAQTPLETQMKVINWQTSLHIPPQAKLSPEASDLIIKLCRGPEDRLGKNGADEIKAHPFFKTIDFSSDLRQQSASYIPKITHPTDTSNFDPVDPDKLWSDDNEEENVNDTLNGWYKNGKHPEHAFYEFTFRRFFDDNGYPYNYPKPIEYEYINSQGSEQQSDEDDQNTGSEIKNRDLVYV", "UniProt O00748, 27-559 limits assumed": "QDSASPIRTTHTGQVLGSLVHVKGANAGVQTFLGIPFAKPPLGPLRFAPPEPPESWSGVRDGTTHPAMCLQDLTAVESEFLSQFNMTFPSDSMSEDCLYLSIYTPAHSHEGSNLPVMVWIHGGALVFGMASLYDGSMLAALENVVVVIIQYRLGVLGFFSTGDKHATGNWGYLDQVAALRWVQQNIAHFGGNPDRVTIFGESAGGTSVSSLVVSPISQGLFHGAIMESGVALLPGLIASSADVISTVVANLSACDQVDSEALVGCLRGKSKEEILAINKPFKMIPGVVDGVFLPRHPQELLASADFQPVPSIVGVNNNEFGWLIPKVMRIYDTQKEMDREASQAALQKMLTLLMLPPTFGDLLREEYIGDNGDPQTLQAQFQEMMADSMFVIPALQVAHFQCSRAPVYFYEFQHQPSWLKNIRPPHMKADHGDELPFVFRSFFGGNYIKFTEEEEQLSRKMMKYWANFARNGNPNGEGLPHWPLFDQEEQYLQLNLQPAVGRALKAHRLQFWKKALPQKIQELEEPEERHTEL", "UniProt O95433, whole entry": "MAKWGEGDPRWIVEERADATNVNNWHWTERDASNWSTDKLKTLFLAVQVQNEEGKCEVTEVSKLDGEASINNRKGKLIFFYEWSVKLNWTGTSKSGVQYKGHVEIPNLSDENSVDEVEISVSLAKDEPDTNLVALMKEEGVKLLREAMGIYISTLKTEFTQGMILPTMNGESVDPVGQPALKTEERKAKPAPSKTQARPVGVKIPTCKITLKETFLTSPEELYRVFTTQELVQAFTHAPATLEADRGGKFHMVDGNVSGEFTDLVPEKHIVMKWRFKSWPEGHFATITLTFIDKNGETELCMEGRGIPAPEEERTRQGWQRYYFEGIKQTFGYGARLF"}, "data": "Experimental data gathered from unrelated publications", "ESR1": "Estrogen receptor (ESR1, Homo sapiens, UniProt P03372)", "IDO1": "Indoleamine 2,3-dioxygenase 1 (IDO1, Homo sapiens, UniProt P14902)", "note": "Each line is one published result; not all experiments were run side by side. Numbers after ± are the reported error."}
{"Compound": "CN(C)c1ccc(CCCN2CCc3ccc(/C=C/C(=O)NO)cc3C2=O)cc1", "target": "Histone deacetylase 1 (HDAC1, Homo sapiens, UniProt Q13547)", "assay": "enzyme activity, inhibitor", "IC50 [nM]": "< 100"}
{"Compound": "Cc1ccc2oc(-c3c4c(N)n[nH]c(=O)c4nn3-c3ccc(C(C)C)cc3)c(C)c2c1", "target": "Fibroblast growth factor receptor 1 (FGFR1, Homo sapiens, UniProt P11362)", "assay": "kinase activity, inhibitor, ELISA", "IC50 [nM]": "24.8 ± 1.1"}
{"Compound": "CC(C)CNC(=O)CSc1nc2ccc(NC(=O)CSc3ccc(C(C)(C)C)cc3)cc2s1", "target": "ESR1", "assay": "reporter gene, antagonist", "test system": "HEC-1 transfected ERα luciferase reporter", "IC50 [nM]": "> 50000"}
{"Compound": "N#Cc1ccc2[nH]cc(/C=C/c3cccc([N+](=O)[O-])c3)c2c1", "target": "IDO1", "assay": "enzyme activity, inhibitor", "IC50 [nM]": "> 100000"}
{"Compound": "O=C(Nc1ccc(-c2nc3ccccc3s2)cc1)c1ccccc1[N+](=O)[O-]", "target": "Tyrosine-protein kinase SYK, with FCER1G (SYK, Homo sapiens, UniProt P43405)", "assay": "protein binding, inhibitor, TR-FRET", "IC50 [nM]": "> 100000"}
{"Compound": "CC(=O)Nc1cc(Nc2cc(NC3CC3)n3ncc(C#N)c3n2)ccc1N(C)Cc1ccccc1", "target": "Casein kinase II subunit alpha (CSNK2A1, Homo sapiens, UniProt P68400)", "assay": "target engagement, NanoBRET", "test system": "HEK293", "IC50 [nM]": 280}
{"Compound": "O=C(c1ccc(O)c(C(F)(F)F)c1)N1Cc2ccccc2C1", "target": "Heat shock protein HSP 90-beta (HSP90AB1, Homo sapiens, UniProt P08238)", "assay": "binding, fluorescence polarization", "conditions": "together with: FITC-geldanamycin tracer", "IC50 [nM]": "> 100000"}
{"Compound": "CN1CCN(Cc2ccc3c(c2)c(=O)c(C(N)=O)cn3-c2ccc(F)cc2)CC1", "target": "Metabotropic glutamate receptor 2 (Grm2, Rattus norvegicus, UniProt P31421)", "assay": "calcium mobilization, negative allosteric modulator", "IC50 [nM]": 1110}
{"Compound": "COc1cc(O)ccc1CCC(=O)c1ccc(O)cc1", "target": "Polyunsaturated fatty acid 5-lipoxygenase (ALOX5, Homo sapiens, UniProt P09917)", "assay": "5-LOX product formation, RP-HPLC", "test system": "human PMNL", "conditions": "together with: A23187 and arachidonic acid", "IC50 [nM]": "8900 ± 1600"}
{"Compound": "CN1CCC[C@@H]1C(=O)N[C@@H](Cc1ccccc1)B(O)O", "target": "Proteasome subunit beta type-2, β2 subunit (Plasmodium falciparum, UniProt Q8I261+Q8I6T3)", "assay": "enzyme activity, inhibitor", "conditions": "together with: Ac-WLR-AMC", "IC50 [nM]": "> 10000"}
{"Compound": "Nc1cc(-c2ccc(C3(c4ccc(Cl)cc4)CCNCC3)cc2)ccn1", "target": "Serine/threonine-protein kinase LATS1 (LATS1, Homo sapiens, UniProt O95835)", "assay": "kinase activity, inhibitor, radiometric HotSpot", "conditions": "together with: ATP 10 µM", "IC50 [nM]": 198}
{"Compound": "CNC(=O)Oc1ccccc1C=C1Cc2cc(OC)c(OC)cc2C1=O", "target": "Cocaine esterase (CES2, Homo sapiens, UniProt O00748)", "assay": "inhibitor", "conditions": "3 min preincubation, together with: fluorescein diacetate", "IC50 [nM]": "1180 ± 135"}
{"Compound": "COc1cc2nccc(Nc3ccc(NC(C)=O)cc3)c2cc1OC", "target": "Serine/threonine-protein kinase N3 (PKN3, Homo sapiens, UniProt Q6P5Z2)", "assay": "binding, split-luciferase", "IC50 [nM]": "> 50000"}
{"Compound": "O=C(NNC(=S)Nc1cccc(C(F)(F)F)c1)c1cccn1-c1ccc(F)cc1", "target": "AHSA1/HSP90AB1 (Homo sapiens, UniProt O95433+P08238)", "assay": "Aha1-stimulated ATPase activity, inhibitor, quinaldine red", "IC50 [nM]": 300}
{"Compound": "COc1cc2ncnc(N[C@H](C)c3ccccc3)c2cc1OC", "target": "Son of sevenless homolog 1, with KRAS (SOS1, Homo sapiens, UniProt Q07889)", "assay": "KRAS binding displacement, inhibitor", "conditions": "GDP-dependent KRAS", "IC50 [nM]": 1300}
{"Compound": "N#Cc1ccc2[nH]cc(/C=C/c3ccccc3)c2c1", "target": "IDO1", "assay": "enzyme activity, inhibitor", "IC50 [nM]": 1600}
{"Compound": "O=C(CCCCCn1c(=S)[nH]c2ccccc2c1=O)N1CCN(c2cccc([N+](=O)[O-])c2)CC1", "target": "ESR1", "assay": "reporter gene, antagonist", "test system": "HEC-1 cells transfected with ERα", "conditions": "together with: estradiol 1 nM", "IC50 [nM]": 6600}
{"Compound": "CC(=O)N1CCN(c2ccc(Nc3ncc4c(n3)N(C)C(=O)N(c3cc(NC(=O)c5ccc(CN6CCC(N(C)C)C6)c(C(F)(F)F)c5)ccc3C)C4)cn2)CC1 (stereo not shown)", "target": "Fibroblast growth factor receptor 4 (FGFR4, Homo sapiens, UniProt P22455)", "assay": "enzyme activity, inhibitor, radiometric kinase", "IC50 [nM]": "< 1"}
{"Compound": "NCCCSc1c2ccccc2nc2ccccc12", "target": "Dual specificity tyrosine-phosphorylation-regulated kinase 2 (DYRK2, Homo sapiens, UniProt Q92630)", "assay": "inhibitor", "conditions": "together with: Woodtide peptide", "IC50 [nM]": 7700}
{"note": "For quick reference, copied from above:"}
{"Compound": "CN1CCN(Cc2ccc3c(c2)c(=O)c(C(N)=O)cn3-c2ccc(F)cc2)CC1", "target": "Metabotropic glutamate receptor 2 (Grm2, Rattus norvegicus, UniProt P31421)", "assay": "calcium mobilization, negative allosteric modulator", "IC50 [nM]": 1110}
